Results pooled from the literature.
Parts stem from different laboratories: compare values within a part only. Several values in a cell are separate wells, animals, samples, runs or records.
Chain of UniProt P10721 (whole entry, unmodified, looked up): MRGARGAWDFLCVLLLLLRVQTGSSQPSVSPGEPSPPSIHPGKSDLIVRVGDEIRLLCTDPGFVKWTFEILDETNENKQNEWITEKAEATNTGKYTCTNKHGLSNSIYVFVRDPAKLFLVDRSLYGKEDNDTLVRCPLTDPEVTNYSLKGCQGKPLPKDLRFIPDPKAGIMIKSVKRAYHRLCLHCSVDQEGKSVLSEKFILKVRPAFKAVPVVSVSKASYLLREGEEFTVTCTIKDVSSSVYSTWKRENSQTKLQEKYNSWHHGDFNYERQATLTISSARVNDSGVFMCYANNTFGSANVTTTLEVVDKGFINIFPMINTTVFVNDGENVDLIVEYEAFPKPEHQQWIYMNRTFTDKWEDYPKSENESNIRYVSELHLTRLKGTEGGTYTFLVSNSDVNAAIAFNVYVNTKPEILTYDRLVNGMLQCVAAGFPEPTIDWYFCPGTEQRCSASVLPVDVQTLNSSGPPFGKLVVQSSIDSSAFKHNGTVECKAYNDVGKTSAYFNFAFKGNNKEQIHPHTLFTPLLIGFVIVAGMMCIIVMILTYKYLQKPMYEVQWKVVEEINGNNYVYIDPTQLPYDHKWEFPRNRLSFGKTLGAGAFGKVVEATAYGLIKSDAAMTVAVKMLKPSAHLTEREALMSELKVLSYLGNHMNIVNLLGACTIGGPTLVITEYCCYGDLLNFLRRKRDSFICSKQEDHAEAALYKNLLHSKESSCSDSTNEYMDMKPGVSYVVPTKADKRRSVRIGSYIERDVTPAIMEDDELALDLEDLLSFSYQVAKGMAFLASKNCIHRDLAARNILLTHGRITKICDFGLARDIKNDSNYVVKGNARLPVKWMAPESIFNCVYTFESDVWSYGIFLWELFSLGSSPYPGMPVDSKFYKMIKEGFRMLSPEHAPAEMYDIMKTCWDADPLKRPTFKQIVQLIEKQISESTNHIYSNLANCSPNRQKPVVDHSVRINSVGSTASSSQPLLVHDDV
Chain of UniProt P49761 (whole entry, looked up): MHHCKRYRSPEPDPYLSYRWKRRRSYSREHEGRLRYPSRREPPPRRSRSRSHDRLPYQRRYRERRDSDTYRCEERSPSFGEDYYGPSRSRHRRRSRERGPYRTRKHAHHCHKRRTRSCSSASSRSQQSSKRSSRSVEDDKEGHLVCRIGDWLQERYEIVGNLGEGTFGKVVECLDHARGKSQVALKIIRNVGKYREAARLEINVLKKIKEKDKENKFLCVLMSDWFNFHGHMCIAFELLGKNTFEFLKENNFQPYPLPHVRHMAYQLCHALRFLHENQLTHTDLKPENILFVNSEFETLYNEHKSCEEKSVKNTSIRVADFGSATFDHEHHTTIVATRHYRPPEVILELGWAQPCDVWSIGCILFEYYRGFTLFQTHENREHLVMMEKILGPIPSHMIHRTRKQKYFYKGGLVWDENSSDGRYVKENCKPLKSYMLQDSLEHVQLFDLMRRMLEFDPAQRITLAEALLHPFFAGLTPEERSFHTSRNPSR
Chain of UniProt Q9H2G2 (whole entry, looked up): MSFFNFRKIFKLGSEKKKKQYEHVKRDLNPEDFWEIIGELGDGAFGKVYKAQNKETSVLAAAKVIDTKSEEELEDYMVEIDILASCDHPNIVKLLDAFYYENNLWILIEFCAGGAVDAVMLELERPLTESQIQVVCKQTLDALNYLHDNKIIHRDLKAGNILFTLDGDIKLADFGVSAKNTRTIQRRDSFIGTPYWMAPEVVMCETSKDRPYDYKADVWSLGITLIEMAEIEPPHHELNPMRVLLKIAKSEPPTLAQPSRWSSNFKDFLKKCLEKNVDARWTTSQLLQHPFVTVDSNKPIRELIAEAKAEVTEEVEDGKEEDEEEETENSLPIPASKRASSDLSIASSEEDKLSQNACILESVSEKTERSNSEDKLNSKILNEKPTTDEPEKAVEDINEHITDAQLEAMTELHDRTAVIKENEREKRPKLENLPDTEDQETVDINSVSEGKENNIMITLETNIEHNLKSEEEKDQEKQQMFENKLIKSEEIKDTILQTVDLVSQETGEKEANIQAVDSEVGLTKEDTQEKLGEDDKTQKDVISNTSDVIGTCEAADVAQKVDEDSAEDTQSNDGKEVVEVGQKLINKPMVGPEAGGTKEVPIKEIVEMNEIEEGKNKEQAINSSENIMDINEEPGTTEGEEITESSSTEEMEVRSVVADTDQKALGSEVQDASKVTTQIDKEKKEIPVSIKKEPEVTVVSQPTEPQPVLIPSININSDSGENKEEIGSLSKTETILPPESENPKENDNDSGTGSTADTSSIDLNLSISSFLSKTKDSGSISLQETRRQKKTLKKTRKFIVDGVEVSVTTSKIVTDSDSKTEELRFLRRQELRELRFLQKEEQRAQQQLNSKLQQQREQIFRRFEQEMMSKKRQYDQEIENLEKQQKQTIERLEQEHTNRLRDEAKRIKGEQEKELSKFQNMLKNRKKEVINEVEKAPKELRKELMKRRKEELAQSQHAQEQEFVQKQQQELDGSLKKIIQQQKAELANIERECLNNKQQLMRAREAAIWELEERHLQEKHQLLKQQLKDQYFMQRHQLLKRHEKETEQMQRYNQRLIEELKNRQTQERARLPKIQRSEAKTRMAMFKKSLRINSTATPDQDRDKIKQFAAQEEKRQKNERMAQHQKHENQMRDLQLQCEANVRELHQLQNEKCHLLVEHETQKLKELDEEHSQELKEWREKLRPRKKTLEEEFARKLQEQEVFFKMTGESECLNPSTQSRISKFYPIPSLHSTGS
Chain of UniProt P54646 (whole entry, looked up): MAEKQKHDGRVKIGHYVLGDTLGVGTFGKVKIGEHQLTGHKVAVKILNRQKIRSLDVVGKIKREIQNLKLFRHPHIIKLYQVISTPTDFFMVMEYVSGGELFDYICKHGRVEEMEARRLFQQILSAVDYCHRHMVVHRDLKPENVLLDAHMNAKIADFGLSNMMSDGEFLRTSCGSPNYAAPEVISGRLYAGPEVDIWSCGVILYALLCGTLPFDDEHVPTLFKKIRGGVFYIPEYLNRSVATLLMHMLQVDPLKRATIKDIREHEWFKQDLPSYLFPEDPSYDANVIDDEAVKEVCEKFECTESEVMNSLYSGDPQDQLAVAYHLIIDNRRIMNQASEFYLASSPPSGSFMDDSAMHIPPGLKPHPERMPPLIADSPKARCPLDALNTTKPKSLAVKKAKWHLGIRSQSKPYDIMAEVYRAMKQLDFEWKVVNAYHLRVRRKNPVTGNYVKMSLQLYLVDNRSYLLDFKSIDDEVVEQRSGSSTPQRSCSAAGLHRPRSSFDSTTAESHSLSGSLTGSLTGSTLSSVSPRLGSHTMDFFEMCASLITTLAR
Chain of UniProt Q02156 (whole entry, looked up): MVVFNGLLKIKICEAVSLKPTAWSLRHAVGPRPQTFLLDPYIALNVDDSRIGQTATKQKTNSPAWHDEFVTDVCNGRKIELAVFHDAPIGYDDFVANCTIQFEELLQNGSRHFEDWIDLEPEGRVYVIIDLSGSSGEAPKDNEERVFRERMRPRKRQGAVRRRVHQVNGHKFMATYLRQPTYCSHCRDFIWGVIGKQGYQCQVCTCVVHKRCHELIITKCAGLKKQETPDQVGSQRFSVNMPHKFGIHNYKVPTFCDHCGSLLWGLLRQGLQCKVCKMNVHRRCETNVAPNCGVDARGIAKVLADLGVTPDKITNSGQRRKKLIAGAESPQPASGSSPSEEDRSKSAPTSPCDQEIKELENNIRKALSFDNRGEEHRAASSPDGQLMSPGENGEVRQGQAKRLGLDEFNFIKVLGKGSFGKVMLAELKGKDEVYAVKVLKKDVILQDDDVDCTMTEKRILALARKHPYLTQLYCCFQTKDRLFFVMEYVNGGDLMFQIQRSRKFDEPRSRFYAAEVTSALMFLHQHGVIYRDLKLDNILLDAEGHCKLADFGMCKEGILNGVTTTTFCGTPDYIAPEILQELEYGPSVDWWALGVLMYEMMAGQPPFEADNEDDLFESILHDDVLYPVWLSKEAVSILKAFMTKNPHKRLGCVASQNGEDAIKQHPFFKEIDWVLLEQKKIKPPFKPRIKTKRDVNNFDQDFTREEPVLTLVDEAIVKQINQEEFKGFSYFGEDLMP
Chain of UniProt Q96BR1 (whole entry, looked up): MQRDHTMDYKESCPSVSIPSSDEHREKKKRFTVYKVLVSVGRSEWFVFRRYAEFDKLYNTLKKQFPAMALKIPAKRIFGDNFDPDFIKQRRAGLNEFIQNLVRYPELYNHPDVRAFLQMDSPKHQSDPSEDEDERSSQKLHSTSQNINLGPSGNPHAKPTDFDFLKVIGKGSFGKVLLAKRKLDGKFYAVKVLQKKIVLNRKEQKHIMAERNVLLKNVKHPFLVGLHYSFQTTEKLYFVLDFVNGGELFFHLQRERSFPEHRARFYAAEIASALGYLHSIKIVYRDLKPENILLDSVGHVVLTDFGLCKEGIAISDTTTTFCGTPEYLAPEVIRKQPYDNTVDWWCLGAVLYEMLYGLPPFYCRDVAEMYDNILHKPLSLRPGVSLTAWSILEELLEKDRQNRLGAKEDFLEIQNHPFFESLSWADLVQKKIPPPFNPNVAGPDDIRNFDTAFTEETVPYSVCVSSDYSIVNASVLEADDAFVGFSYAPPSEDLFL
Chain of UniProt O96017 (whole entry, looked up): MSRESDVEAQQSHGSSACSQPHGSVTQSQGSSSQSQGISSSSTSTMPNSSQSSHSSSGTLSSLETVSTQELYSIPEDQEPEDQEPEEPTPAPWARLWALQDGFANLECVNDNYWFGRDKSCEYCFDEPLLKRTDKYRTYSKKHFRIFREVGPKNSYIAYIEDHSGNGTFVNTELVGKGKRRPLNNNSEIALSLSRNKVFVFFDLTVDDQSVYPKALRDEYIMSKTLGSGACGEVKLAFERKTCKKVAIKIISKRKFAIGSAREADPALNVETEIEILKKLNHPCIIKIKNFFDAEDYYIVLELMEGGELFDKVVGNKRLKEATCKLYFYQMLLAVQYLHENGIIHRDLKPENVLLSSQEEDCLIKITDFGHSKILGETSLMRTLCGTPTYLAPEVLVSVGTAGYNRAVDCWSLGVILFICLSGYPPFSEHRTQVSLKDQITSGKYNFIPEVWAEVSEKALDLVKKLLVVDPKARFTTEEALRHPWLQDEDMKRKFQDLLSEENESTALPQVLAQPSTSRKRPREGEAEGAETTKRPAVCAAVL

Block 1
Structure (SMILES): COc1ccc2c(c1)O[C@@H](c1ccc(OC)c(OC)c1)C[C@H]2NC(=O)C1(c2ccc3c(c2)OC(F)(F)O3)CC1
Technique: competition with immobilised ligand
Concentration: 1 µM
target	effect on	remaining binding [%]
Protein kinase C epsilon type (PRKCE, Homo sapiens, UniProt Q02156)	cell-free assay	91
Receptor tyrosine-protein kinase erbB-3 (ERBB3, Homo sapiens, UniProt P21860)	cell-free assay	86
Macrophage-stimulating protein receptor (MST1R, Homo sapiens, UniProt Q04912)	cell-free assay	94
Calcium/calmodulin-dependent protein kinase type II subunit delta (CAMK2D, Homo sapiens, UniProt Q13557)	cell-free assay	91
Hormonally up-regulated neu tumor-associated kinase (HUNK, Homo sapiens, UniProt P57058)	cell-free assay	100
Myosin-IIIa (MYO3A, Homo sapiens, UniProt Q8NEV4)	binding	93
Serine/threonine-protein kinase BRSK2 (BRSK2, Homo sapiens, UniProt Q8IWQ3)	cell-free assay	100
Phosphatidylinositol 4,5-bisphosphate 3-kinase catalytic subunit beta isoform (PIK3CB, Homo sapiens, UniProt P42338)	cell-free assay	89
Cyclin-dependent kinase 11B (CDK11B, Homo sapiens, UniProt P21127)	cell-free assay	100
Dual specificity mitogen-activated protein kinase kinase 6 (MAP2K6, Homo sapiens, UniProt P52564)	cell-free assay	100
Dual specificity protein kinase CLK3 (CLK3, Homo sapiens, UniProt P49761)	cell-free assay	100
Serine/threonine-protein kinase Sgk3 (SGK3, Homo sapiens, UniProt Q96BR1)	cell-free assay	84
5'-AMP-activated protein kinase catalytic subunit alpha-2 (PRKAA2, Homo sapiens, UniProt P54646)	cell-free assay	100
Mast/stem cell growth factor receptor Kit (KIT, Homo sapiens, UniProt P10721, D816H)	cell-free assay	94
Phosphatidylinositol 4-phosphate 3-kinase C2 domain-containing subunit beta (PIK3C2B, Homo sapiens, UniProt O00750)	cell-free assay	96
Leucine-rich repeat serine/threonine-protein kinase 2 (LRRK2, Homo sapiens, UniProt Q5S007, G2019S)	cell-free assay	90
Casein kinase I isoform gamma-3 (CSNK1G3, Homo sapiens, UniProt Q9Y6M4)	cell-free assay	100
NT-3 growth factor receptor (NTRK3, Homo sapiens, UniProt Q16288)	cell-free assay	83
Dual specificity protein kinase TTK (TTK, Homo sapiens, UniProt P33981)	cell-free assay	100
Mast/stem cell growth factor receptor Kit (KIT, Homo sapiens, UniProt P10721, D816V)	cell-free assay	92
Calcium/calmodulin-dependent protein kinase type 1G (CAMK1G, Homo sapiens, UniProt Q96NX5)	cell-free assay	84
Ephrin type-A receptor 4 (EPHA4, Homo sapiens, UniProt P54764)	cell-free assay	100

Block 2
SMILES: COc1ccc2[nH]c3c4[nH]c5ccc(OC)cc5c4c4c(c3c2c1)C(=O)NC4=O
target	effect on	technique	concentration	remaining binding
Serine/threonine-protein kinase Chk2 (CHEK2, Homo sapiens, UniProt O96017)	binding		1 µM	1.7%
Eukaryotic translation initiation factor 2-alpha kinase 1 (EIF2AK1, Homo sapiens, UniProt Q9BQI3)	binding		1 µM	86%
Serine/threonine-protein kinase 32B (STK32B, Homo sapiens, UniProt Q9NY57)	binding		1 µM	97%
Serine/threonine-protein kinase MRCK gamma (CDC42BPG, Homo sapiens, UniProt Q6DT37)		DiscoverX cell-free binding	1000 nM	84%
STE20-like serine/threonine-protein kinase (SLK, Homo sapiens, UniProt Q9H2G2)	binding	competition with immobilised ligand	1 µM	96%
eIF-2-alpha kinase GCN2 (EIF2AK4, Homo sapiens, UniProt Q9P2K8, S808G)	binding		1 µM	74%
Mitotic checkpoint serine/threonine-protein kinase BUB1 (BUB1, Homo sapiens, UniProt O43683)	binding		1 µM	29%

Block 3
Technique: PRP chromatography
Notes: linear fit, 1 mL
Compound	logD 1,9-decadiene/water
CC(C)C[C@@H]1NC(=O)[C@H](C(C)C)NC(=O)[C@H](C)NC(=O)[C@@H](CC(C)C)NC(=O)[C@@H](CCC(=O)N2CCCC2)NC(=O)[C@H](CC(C)C)NC(=O)[C@@H](CC(C)C)NC1=O	-1.55 log units
CC(C)C[C@@H]1NC(=O)[C@H](Cc2cscn2)NC(=O)[C@H](CCC(=O)N2CCCC2)NC(=O)[C@H](CC(C)C)NC(=O)[C@@H](Cc2cscn2)NC(=O)[C@H](CC(C)C)NC(=O)[C@@H](CC(C)C)NC1=O	-0.922 log units
CC(C)C[C@@H]1NC(=O)[C@H](C(C)C)NC(=O)[C@@H](CC(C)C)NC(=O)[C@@H](CC(C)C)NC(=O)[C@H](C)NC(=O)[C@H](CC(C)C)NC(=O)[C@@H](CC(C)C)NC1=O	1.22 log units
CC(C)C[C@@H]1NC(=O)[C@H](CC(C)C)NC(=O)[C@@H](C(C)C)NC(=O)[C@H](C(C)C)NC(=O)[C@H](C)NC(=O)[C@@H](CC(C)C)NC(=O)[C@H](C)NC1=O	-1.33 log units
CC(C)C[C@@H]1NC(=O)[C@H](Cc2cscn2)NC(=O)[C@@H](CC(C)C)NC(=O)[C@H](C(C)C)NC(=O)[C@H](CC(C)C)NC(=O)[C@@H](CC(C)C)NC(=O)[C@H](CC(C)C)NC1=O	1.09 log units
CC(C)C[C@@H]1NC(=O)[C@H](CC(C)C)NC(=O)[C@H](CC(C)C)NC(=O)[C@H](C(C)C)NC(=O)[C@H](C(C)C)NC(=O)[C@H](Cc2cscn2)NC(=O)[C@H](C)NC1=O	-2.15 log units
CC(C)C[C@@H]1NC(=O)[C@@H](C)NC(=O)[C@H](C)NC(=O)[C@@H](C(C)C)NC(=O)[C@H](C(C)C)NC(=O)[C@H](CC(C)C)NC(=O)[C@@H](CC(C)C)NC1=O	-1.2 log units
CC(C)C[C@@H]1NC(=O)[C@H](Cc2cscn2)NC(=O)[C@H](CCC(=O)N2CCCC2)NC(=O)[C@H](CC(C)C)NC(=O)[C@@H](CCC(=O)N2CCCC2)NC(=O)[C@H](CC(C)C)NC(=O)[C@@H](CC(C)C)NC1=O	-4.9 log units

Block 4
Species: human
Medium: microsomes or S9
Concentration: 2 µM
Time: 0.5 h
SMILES	remaining compound [%]
c1ccc2c(c1)nc(-c1ccsc1)n2Cc1ccsc1	5.88
Cc1cc(C)nc(Nn2c(-c3ccccc3)nc3ccccc3c2=O)n1	52.5
CC(C)(C)OC(=O)NC1CCN(c2nnc(Cl)c3ccccc23)CC1	36.8
CC1CCC(C)N1C(=O)c1cc(Br)nn1-c1ncccc1Cl (centres unmarked)	11.7
Oc1c(-c2nc(-c3cccs3)no2)cnc2ccccc12	1.35

Block 5
SMILES: CC(C)(C(=O)O)[C@H](NC(=O)Cc1cccc(I)c1)c1ccc2oc(=O)[nH]c2c1
Technique: Incucyte 3D growth
Concentration: 30 µM
Direction: higher = more growth
cell line	time	spheroid area
A375	360.52 h	1.7e+08 a.u. and 1.66e+08 a.u. and 1.75e+08 a.u. and 1.93e+08 a.u. and 1.85e+08 a.u.
IPC-298	120 h	2.74e+07 a.u. and 2.87e+07 a.u. and 1.98e+07 a.u. and 2.71e+07 a.u. and 3.19e+07 a.u. and 2.43e+07 a.u.
IPC-298	210 h	2.87e+07 a.u. and 3.77e+07 a.u. and 2.68e+07 a.u. and 3.18e+07 a.u. and 2.35e+07 a.u.
PC-9	168 h	1.44e+09 a.u. and 1.42e+09 a.u. and 1.53e+09 a.u. and 1.45e+09 a.u. and 1.54e+09 a.u.
A375	480.52 h	1.61e+08 a.u. and 1.59e+08 a.u. and 1.52e+08 a.u. and 1.48e+08 a.u. and 1.4e+08 a.u. and 1.77e+08 a.u.

Excerpt of the above (block 2):
target	effect on	technique	concentration	remaining binding
Mitotic checkpoint serine/threonine-protein kinase BUB1 (BUB1, Homo sapiens, UniProt O43683)	binding		1 µM	29%
Eukaryotic translation initiation factor 2-alpha kinase 1 (EIF2AK1, Homo sapiens, UniProt Q9BQI3)	binding		1 µM	86%
STE20-like serine/threonine-protein kinase (SLK, Homo sapiens, UniProt Q9H2G2)	binding	competition with immobilised ligand	1 µM	96%
Serine/threonine-protein kinase 32B (STK32B, Homo sapiens, UniProt Q9NY57)	binding		1 µM	97%
eIF-2-alpha kinase GCN2 (EIF2AK4, Homo sapiens, UniProt Q9P2K8, S808G)	binding		1 µM	74%
